{"data": "Results pooled from the literature", "note": "Lines come from different studies, so protocols differ. ± marks the error that the study gave."}
{"Compound": "CCC1(O)C([N+](=O)[O-])=NNc2ncnn21 (stereo not drawn)", "organism": "Enterovirus B", "test": "viral replication, inhibitor", "test system": "Vero, B3", "setting": "48 h", "IC50": "> 235 µM"}
{"Compound": "C/C=C1\\NC(=O)[C@H](Cc2ccccc2)NC(=O)[C@H](C(C)C)NC(=O)[C@H](Cc2ccccc2)NC(=O)[C@H](CCC(N)=O)NC(=O)[C@H](Cc2c[nH]c3ccccc23)NC(=O)[C@H]2CSC[C@@H](C(=O)N[C@@H](CO)C(=O)O)NC(=O)[C@H](CSC[C@H]3NC(=O)[C@H]([C@@H](C)CC)NC(=O)[C@H](NC(=O)[C@H](Cc4c[nH]cn4)NC(=O)[C@@H](NC(=O)[C@@H](NC(=O)CNC(=O)[C@H](CO)NC(=O)CNC(=O)CNC(=O)[C@@H](N)CCCCN)C(C)C)[C@@H](C)CC)[C@H](C)SC[C@H](NC(=O)[C@H](CCC(=O)O)NC(=O)[C@H](Cc4c[nH]cn4)NC3=O)C(=O)N[C@@H](CC(N)=O)C(=O)N[C@@H](CCSC)C(=O)N[C@@H](CC(N)=O)C(=O)N2)NC1=O", "organism": "Lactococcus lactis subsp. cremoris", "test": "growth, OD600", "test system": "HP ATCC 11602", "setting": "6 h, 30 °C", "IC50": "0.3 ± 0.07 µM"}
{"Compound": "CCc1ccc(COP(=O)(O)Oc2c3c(c(OP(=O)(O)OCc4ccc(CC)cc4)c4c2C2CC4c4cc5c(cc42)C2CC5c4ccccc42)C2CC3c3cc4c(cc32)C2CC4c3ccccc32)cc1", "organism": "measles virus", "test": "viral infection, flow cytometry", "test system": "A549, vaccine strain GFP", "setting": "2 days, virus pre-incubated 30 min 37 °C", "IC50": "7 µM"}
{"Compound": "CC(C)=CCC/C(C)=C/CNCCOC1C2CC3CC(C2)CC1C3 (stereo not drawn)", "organism": "Bacillus subtilis", "test": "microbial growth", "IC50": "16 µg/mL"}
{"Compound": "CC(=O)Nc1ccc2ccn(-c3cc(NC4CC4)n4ncc(C#N)c4n3)c2c1", "organism": "Murine coronavirus", "test": "viral replication", "IC50": "0.04 µM"}
{"Compound": "O=P(O)(OCc1ccc(-c2ccccc2)cc1)Oc1c2c(c(OP(=O)(O)OCc3ccc(-c4ccccc4)cc3)c3c1C1CC3c3cc4c(cc31)C1CC4c3ccccc31)C1CC2c2cc3c(cc21)C1CC3c2ccccc21", "organism": "measles virus", "test": "viral infection, flow cytometry", "test system": "A549, vaccine strain GFP", "setting": "2 days, virus pre-incubated 30 min 37 °C", "IC50": "8.1 µM"}
{"Compound": "CC1OC(OC2CC(O)C3(CO)C4C(O)CC5(C)C(C6COC(=O)C6)CCC5(O)C4CCC3(O)C2)C(O)C(O)C1O (stereo not drawn)", "organism": "transmissible gastroenteritis virus", "test": "viral replication, immunofluorescence", "test system": "ST cells", "setting": "6 h post-infection, pretreated 1 h", "IC50": "3.13 ± 0.842 µM"}
{"Compound": "CC(C)CCOP(=O)(O)Oc1c2c(c(OP(=O)(O)OCCC(C)C)c3c1C1CC3c3cc4c(cc31)C1CC4c3ccccc31)C1CC2c2cc3c(cc21)C1CC3c2ccccc21", "organism": "measles virus", "test": "viral infection, flow cytometry", "test system": "A549, vaccine strain GFP", "setting": "2 days, virus pre-incubated 30 min 37 °C", "IC50": "2.8 µM"}
{"Compound": "CN1CCN(C(=O)N[C@@H](Cc2ccccc2)C(=O)N[C@H](/C=C/S(=O)(=O)c2ccccc2)CCc2ccccc2)CC1", "organism": "Murine leukemia virus", "test": "pseudovirus entry", "test system": "HEK-293T, amphotropic", "IC50": "> 0.1 µM"}
{"Compound": "O=P(O)(O)Oc1c2c(c(OP(=O)(O)O)c3c1C1CC3c3cc4c(cc31)C1CC4c3ccccc31)C1CC2c2cc3c(cc21)C1CC3c2ccccc21", "organism": "measles virus", "test": "viral infection, flow cytometry", "test system": "A549, vaccine strain GFP", "setting": "2 days, virus pre-incubated 30 min 37 °C", "IC50": "78.4 µM"}
{"Compound": "CC(C)=CCNCCOC1C2CC3CC(C2)CC1C3 (stereo not drawn)", "organism": "Bacillus subtilis", "test": "microbial growth", "IC50": "> 120 µg/mL"}
{"Compound": "CCC1(O)C([N+](=O)[O-])=NNc2nc(C(F)(F)F)nn21 (stereo not drawn)", "organism": "Enterovirus B", "test": "viral replication, inhibitor", "test system": "Vero, B3", "setting": "48 h", "IC50": "129 µM"}
{"note": "For quick reference, copied from above:"}
{"Compound": "CC(=O)Nc1ccc2ccn(-c3cc(NC4CC4)n4ncc(C#N)c4n3)c2c1", "organism": "Murine coronavirus", "test": "viral replication", "IC50": "0.04 µM"}
